{"data": "Measured values pooled from the literature", "note": "Protocols differ between the studies behind these lines. Numbers after ± are the reported error."}
{"SMILES": "C=C(NC(=O)c1csc(-c2nc3c(cc2O)-c2nc(cs2)C(=O)NC(C(C)O)C(=O)NC(=C(C)OC)c2nc(cs2)C(=O)NC2c4nc(cs4)C(=O)NC(COC(=O)c4c5c6c(cccc6n4O)COC(=O)C(OC4CC(C)(O)C(N(C)C)C(C)O4)C2OC5)c2nc-3cs2)n1)C(N)=O (stereo not shown)", "target or system": "Streptococcus pneumoniae", "test system": "-4, immunocompromised mice, lung infection, lung", "setting": "8 mg/kg/day once daily, 24 h post-dose", "endpoint": "bacterial load", "result": "4.74 log CFU/g"}
{"SMILES": "C=CC(=O)N1[C@@H](c2ccc3c(c2)OCO3)c2[nH]c3ccccc3c2C[C@H]1C(=O)N1CCN(C)CC1", "target or system": "human cyclin E1 N112C-3xFLAG:CDK2", "test": "co-IP with TMT proteomics, refers to: HSPA5", "setting": "concentration not given, P11021", "scale": "relative to: wild type DMSO", "endpoint": "relative co-enrichment", "result": "110%"}
{"SMILES": "Nc1ncc(-c2cc(-c3cnn(CC(F)(F)F)c3)ncc2F)nc1C(=O)NC1CNCC(F)C1 (stereo not shown)", "target or system": "PDGFRA", "test": "KINOMEscan", "setting": "1 µM", "scale": "relative to: DMSO control", "endpoint": "remaining binding", "result": "36%"}
{"SMILES": "COc1ccc(C(=O)CCc2cc(C(CCc3ccc(O)cc3OC)c3ccc(O)cc3)c(O)cc2OC)cc1 (racemic)", "test system": "human blood", "setting": "30 µM, together with: A23187", "endpoint": "20-OH-LTB4 level", "result": "455 ± 191 pg/mL"}
{"SMILES": "O=C(N/N=C/c1cc[n+](Cc2ccccc2)c2ccccc12)c1ccc2ccc3ccc(C(=O)N/N=C/c4cc[n+](Cc5ccccc5)c5ccccc45)nc3c2n1", "target or system": "myc22 MYC G4-DNA parallel", "test": "FRET melting", "setting": "1 µM, K1 buffer, DNA 0.2 µM, together with: ds26 10 µM", "endpoint": "ΔTm", "result": "16.5 ± 1.9 °C"}
{"SMILES": "CN1CCC[C@]1(C)/C=C/S(=O)(=O)NC(=O)Nc1c2c(cc3c1CCC3)CCC2", "test system": "human, whole blood ex vivo", "setting": "250 mg single dose, 12 h, single ascending dose, together with: LPS and ATP", "endpoint": "IL-1β inhibition", "result": "99%"}
{"SMILES": "Cc1cccc2c1N(C(=O)n1ccnn1)CC2", "target or system": "Arabidopsis thaliana", "test system": "wild type", "setting": "30 µM, seedlings", "endpoint": "hypocotyl length", "result": "9.76 mm"}
{"SMILES": "CCN(C(=O)c1cc(F)ccc1Oc1nncnc1N1CCC2(C1)CN([C@H](CCCN(C)CCOC)C(C)C)C2)C(C)C", "target or system": "NCI-H358M", "test": "cell growth or viability", "setting": "72 h", "endpoint": "GI50", "result": "> 10000 nM"}
{"SMILES": "C[n+]1cccc2cc(/C=N/NC(=O)N/N=C/c3ccc4c(ccc[n+]4C)c3)ccc21", "target or system": "myc22 MYC G4-DNA parallel", "test": "FRET melting", "setting": "1 µM, K1 buffer, DNA 0.2 µM, together with: ds26 10 µM", "endpoint": "ΔTm", "result": "3.8 ± 0.4 °C"}
{"SMILES": "Cn1ncc2cc(-c3cncc(Cl)c3N3CCC4(CCNC4=O)CC3)ccc21", "target or system": "LS174T", "test": "gene expression, microarray, refers to: ZFP14 mRNA", "setting": "concentration not given, 4 h", "scale": "relative to: untreated cells", "endpoint": "log2 fold change", "result": 1.88}
{"SMILES": "O=C(N/N=C/c1cc[n+](CC2CC2)c2ccccc12)c1cncc(C(=O)N/N=C/c2cc[n+](CC3CC3)c3ccccc23)n1", "target or system": "myc22 MYC G4-DNA parallel", "test": "FRET melting", "setting": "1 µM, K1 buffer, DNA 0.2 µM", "endpoint": "ΔTm", "result": "20.5 ± 0.3 °C"}
{"SMILES": "COc1cc(O)ccc1CCC(c1ccc(O)cc1)c1cc2c(c(C)c1O)OC(c1ccc(O)cc1)CC2 (mixture of isomers)", "test": "refers to: 5-HEPE", "test system": "human whole blood", "setting": "3 µM, together with: Escherichia coli", "endpoint": "amount", "result": "91 ± 25 pg/mL blood"}
{"SMILES": "CN1CCCNC(=O)c2cccc(c2)C(=O)NCCCN(C)CCCNc2cccc3c2C(=O)c2cccc(c2C3=O)NCCC1", "target or system": "SAS", "test": "RNA-seq, refers to: PIGF mRNA", "setting": "1 µM, 6 h", "scale": "relative to: untreated cells", "endpoint": "log2 fold change", "result": -0.671}
{"SMILES": "C[N+](C)(C)CCO.O=C([O-])C(Cl)Cl", "target or system": "Eleusine indica", "setting": "15 mg/mL, 21 days, post-emergence, greenhouse", "endpoint": "herbicidal inhibition", "result": "0%"}
{"SMILES": "COC1CN([C@H]2CC[C@H]([C@@]3(C)Oc4c(Cl)cc(C(=O)NCc5c(SC)cc(C)[nH]c5=O)c(C)c4O3)CC2)C1", "test": "RNA-seq, refers to: MEIOC", "test system": "human, whole blood", "setting": "dose not given, 24 h", "scale": "relative to: pretreatment baseline", "endpoint": "log2 fold change", "result": 1.01}
{"SMILES": "C[n+]1ccc(/C=N/NC(=O)c2cccc(C(=O)N/N=C/c3cc[n+](C)c4ccccc34)n2)c2ccccc21", "target or system": "myc22 MYC G4-DNA parallel", "test": "FRET melting", "setting": "1 µM, K1 buffer, DNA 0.2 µM", "endpoint": "ΔTm", "result": "25.9 ± 0.3 °C"}
{"SMILES": "NCCOCCO.O=C(O)C(Cl)Cl", "target or system": "Amaranthus retroflexus", "test": "herbicidal activity", "setting": "15 mg/mL, 21 days, pre-emergence greenhouse", "endpoint": "inhibition", "result": "0%"}
{"SMILES": "CC(C)c1ccc(N(C)c2ccc3c(c2)OCC[C@H]3CNc2cnccc2C(=O)O)cc1", "target or system": "TE-10", "test": "cell growth or viability, ATP luminescence", "setting": "7 days", "endpoint": "IC50", "result": "16.3 nM"}
{"SMILES": "C[n+]1cccc2cc(/C=N/NC(=O)c3cccc(C(=O)N/N=C/c4ccc5c(ccc[n+]5C)c4)n3)ccc21", "target or system": "myc22 MYC G4-DNA parallel", "test": "FRET melting", "setting": "1 µM, K1 buffer, DNA 0.2 µM, together with: ds26 10 µM", "endpoint": "ΔTm", "result": "17.9 ± 0.6 °C"}
{"SMILES": "CNS(=O)(=O)Nc1nccc(Cc2c(C)c3ccc(Oc4ncccc4F)cc3oc2=O)c1F", "target or system": "SAOS-2", "test": "cell viability", "setting": "7 days", "endpoint": "IC50", "result": "> 1000 nM"}
{"SMILES": "c1ccc(-c2n[nH]cc2-c2ccnc3ccccc23)nc1", "target or system": "orf19.4575 Candida albicans", "test": "kinase binding, MIB/MS competition", "test system": "Candida albicans lysate", "setting": "1 µM", "scale": "relative to: DMSO", "endpoint": "log2 fold change", "result": 0.04}
{"SMILES": "C[n+]1cc(/C=N/NC(=O)c2cccc(C(=O)N/N=C/c3cc4ccccc4[n+](C)c3)n2)cc2ccccc21", "target or system": "myc22 MYC G4-DNA parallel", "test": "FRET melting", "setting": "1 µM, K1 buffer, DNA 0.2 µM, together with: ds26 10 µM", "endpoint": "ΔTm", "result": "17.5 ± 0.8 °C"}
{"SMILES": "CCN(CC)CC(=O)Nc1cccc(-n2cc(-c3ccc4ccc(-c5cn(-c6cccc(NC(=O)CN(CC)CC)c6)nn5)cc4c3)nn2)c1", "target or system": "RCC4", "test": "PCR angiogenesis array, refers to: IL8", "setting": "5 x IC50, 4 h, normoxia", "scale": "relative to: untreated", "endpoint": "fold regulation", "result": -1.69}
{"SMILES": "O=C(N/N=C/c1cc[n+](Cc2ccccc2)c2ccccc12)c1cncc(C(=O)N/N=C/c2cc[n+](Cc3ccccc3)c3ccccc23)n1", "target or system": "myc22 MYC G4-DNA parallel", "test": "FRET melting", "setting": "1 µM, K1 buffer, DNA 0.2 µM", "endpoint": "ΔTm", "result": "18 ± 0.5 °C"}
{"SMILES": "C=CC(=O)Nc1cccc(Cn2ncc3cnc(Nc4cnn(CCOC)c4)nc32)c1", "target or system": "PRKD1 human", "test": "binding, KINOMEscan", "setting": "100 nM", "scale": "lower = stronger binding", "endpoint": "percent of control", "result": "100%"}
{"SMILES": "C[n+]1cccc2cc(/C=N/NC(=O)c3cc(C(=O)N/N=C/c4ccc5c(ccc[n+]5C)c4)ncn3)ccc21", "target or system": "myc22 MYC G4-DNA parallel", "test": "FRET melting", "setting": "1 µM, K1 buffer, DNA 0.2 µM, together with: ds26 10 µM", "endpoint": "ΔTm", "result": "3.6 ± 0.3 °C"}
{"SMILES": "Cc1ncsc1-c1ccc(C(C)NC(=O)C2CC(O)CN2C(=O)C(NC(=O)CCCCCCCCCCN2CCCC(Nc3ncc(Cl)c(Nc4ccccc4S(=O)(=O)C(C)C)n3)C2)C(C)(C)C)cc1 (stereo not shown)", "target or system": "22Rv1", "test": "RNA-seq, refers to: POLH mRNA", "setting": "concentration not given", "scale": "relative to: DMSO", "endpoint": "log2 fold change", "result": -1.1}
{"SMILES": "CC(=O)[O-].O.O.O.O.[Co+2].[O-]c1ccc(Br)cc1C=NCCN1CCOCC1", "test": "superoxide scavenging", "setting": "160 µM", "endpoint": "inhibition", "result": "44.8%"}
